# Assay results of several laboratories.
# Protein sequences, listed by entry. Tags and fused reporters are not part of them.
# UniProt P9WPP7, whole entry: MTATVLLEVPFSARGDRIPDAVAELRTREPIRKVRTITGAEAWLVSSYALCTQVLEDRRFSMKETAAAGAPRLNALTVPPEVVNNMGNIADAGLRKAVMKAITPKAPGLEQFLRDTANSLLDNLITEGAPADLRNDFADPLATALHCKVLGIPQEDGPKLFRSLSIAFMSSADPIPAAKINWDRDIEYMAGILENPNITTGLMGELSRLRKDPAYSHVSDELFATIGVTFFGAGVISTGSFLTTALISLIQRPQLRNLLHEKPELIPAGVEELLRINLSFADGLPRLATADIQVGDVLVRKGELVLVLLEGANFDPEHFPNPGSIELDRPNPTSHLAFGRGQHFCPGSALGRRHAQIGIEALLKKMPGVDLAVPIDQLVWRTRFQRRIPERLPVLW
# Protocols differ between the studies behind these lines. ± gives the spread as reported.
# cyp121: Mycocyclosin synthase (cyp121, Mycobacterium tuberculosis, UniProt P9WPP7)
Structure (SMILES),tested on,test,test system,conditions,scale,measurement,result
Fc1ccc(-c2ccc(Cn3ccnc3)cc2F)cc1,cyp121,binding,,,,Kd,7.4 ± 0.8 µM
O=C(NCCNCCO)c1cc2c([nH]c3ccccc32)c(-c2cc(Cl)c(Cl)c(Cl)c2)n1,HepG2,cytotoxicity,,,,CC50,4.54 µM
O=C(O)CCOc1c(SSc2cnn(-c3ccccc3)c(=O)c2OCCC(=O)O)cnn(-c2ccccc2)c1=O,HeLa,,,,,CC50,> 100 µM
"C=CC(c1ccc(-c2ccc3c(c2)OCO3)cc1)n1ccnc1 (single isomer, unassigned)",cyp121,,,enantiomer E1,,Kd,9.6 µM
CCOc1ccc2cc(-c3nn(CC4CCNCC4)c4ncnc(N)c34)ccc2n1,HepG2,"cell growth, Alamar Blue",,"48 or 72 h, highest tested 30 µM",,GI50,> 30 µM
NCCNC(=O)c1cc2c([nH]c3ccccc32)c(-c2ccc(C(F)(F)F)cc2)n1,HepG2,cytotoxicity,,,,CC50,4.53 µM
CC1(C)CC[C@]2(C(=O)O)CC[C@]3(C)C(=CC[C@@H]4[C@@]5(C)CC[C@H](OC(=O)NCc6ccccc6)C(C)(C)[C@@H]5CC[C@]43C)[C@@H]2C1,N2a cells expressing human APP695,MTT,,5 µM,,cytotoxicity,not toxic
C=CC(=O)Nc1cc(-n2c(=O)ccc3cnc4ccc(-c5cn[nH]c5)cc4c32)ccc1C,normal bone marrow cells,,,1 µM,,colony formation,no inhibition
O=C(NC1CCN(c2ncnc3[nH]cnc23)CC1)c1cccc(NS(=O)(=O)c2ccc(F)cc2)c1,,,"mouse, plasma","oral, 70 mg/kg",,Cmax,44.6 ng/mL
O=c1c(OCCO)c(SSc2cnn(-c3ccccc3)c(=O)c2OCCO)cnn1-c1ccccc1,HeLa,,,,,CC50,> 100 µM
CNCCNC(=O)c1cc2c([nH]c3ccccc32)c(-c2cc(Cl)c(Cl)c(Cl)c2)n1,HepG2,cytotoxicity,,,,CC50,6.59 µM
CCOc1ccc2cc(-c3nn(CC4CCNCC4)c4ncnc(N)c34)ccc2c1,HepG2,"cell growth, Alamar Blue",,"48 or 72 h, highest tested 30 µM",,GI50,> 30 µM
NC(=O)CCOc1c(SSc2cnn(-c3ccccc3)c(=O)c2OCCC(N)=O)cnn(-c2ccccc2)c1=O,HeLa,,,,,CC50,> 100 µM
CCOc1ccc2cc(-c3nn(C(C)(C)C)c(N)c3C(N)=O)cnc2c1,MARC145 uninfected,XTT,,"5 µM, 72 h",reference: DMSO,cytotoxicity,5.2%
O=C(NC1CCN(c2ncnc3[nH]cnc23)CC1)c1cccc(NS(=O)(=O)c2ccc(Cl)cc2)c1,A549-ACE2,,,200 µM,,viability,69.4%
CC(C)(O)Cn1nc(-c2ccc3nc(OC4CC4)ccc3c2)c2c(N)ncnc21,HepG2,cytotoxicity,,,,CC50,> 40 µM

# Some of these lines once more:
Structure (SMILES),tested on,test,test system,conditions,scale,measurement,result
CCOc1ccc2cc(-c3nn(C(C)(C)C)c(N)c3C(N)=O)cnc2c1,MARC145 uninfected,XTT,,"5 µM, 72 h",reference: DMSO,cytotoxicity,5.2%
O=C(NC1CCN(c2ncnc3[nH]cnc23)CC1)c1cccc(NS(=O)(=O)c2ccc(Cl)cc2)c1,A549-ACE2,,,200 µM,,viability,69.4%
CC(C)(O)Cn1nc(-c2ccc3nc(OC4CC4)ccc3c2)c2c(N)ncnc21,HepG2,cytotoxicity,,,,CC50,> 40 µM
